Results from different studies.
Numbered parts are unrelated; each lists some results of a single study. Substitutions count along the parent as printed.

Series 1 — method: RNA Bind-n-Seq; form: RNA; matrix: in vitro; tested at: not given; notes: RNA with constant flanks, ends assumed; baseline: input RNA pool; reading: higher = stronger binding
Target: RING finger protein unkempt homolog, zinc fingers 1-6, GST-SBP tag (UNK, Homo sapiens, UniProt Q9C0B0, residues 30-357)
Target sequence (chain): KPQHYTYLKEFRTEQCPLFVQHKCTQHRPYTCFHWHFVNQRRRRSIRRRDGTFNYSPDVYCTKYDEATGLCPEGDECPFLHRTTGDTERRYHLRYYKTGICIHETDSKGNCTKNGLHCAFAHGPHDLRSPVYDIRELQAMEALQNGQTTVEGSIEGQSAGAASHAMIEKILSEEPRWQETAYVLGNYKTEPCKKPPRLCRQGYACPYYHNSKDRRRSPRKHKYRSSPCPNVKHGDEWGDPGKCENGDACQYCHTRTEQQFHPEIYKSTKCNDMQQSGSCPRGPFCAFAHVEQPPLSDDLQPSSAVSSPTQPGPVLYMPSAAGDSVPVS
Strand	bound/input enrichment
GGGAGUUCUACAGUCCGACGAUCUUUAAAGAAAAUACAAAGAUGCAGUUUCUGCAGGGUGUGGCGUGGACCAGUGCUGCCGACCACCGCUCAGAGAGCCCUGCCCCUGCCUCACUGCACUGCAGCCUCCUCGGAGGCCGCACCCAACAGAGGAUUGAGCAUCA	0.184 ratio
GGGAGUUCUACAGUCCGACGAUCCUGGCAGUGGAGGCAUGUGUGAAUAUUGCCCAGCUUCUGCCACAGGAGGACCUGGAGGCCUCCGUGAUGCCCACCUUGCGACAGGCUGCUGAGGACAAGUCUUGGCGUGUUCGCUACAUGCAACAGAGGAUUGAGCAUCA	0.0528 ratio
GGGAGUUCUACAGUCCGACGAUCCUGGGUUGGCAAUUGACUGGUCAAGAAACCCAUGAGUUACAAAUGUGUUUGAAACAAAUAAUCCGAAACAUAAAAUUCAAAAUGCCCCAAUAUAGCACUUUUGGGGAUUCAACUUCUACACAACAGAGGAUUGAGCAUCA	0.157 ratio
GGGAGUUCUACAGUCCGACGAUCUUCAUUCAUGCUAAUGUUGACAUUGACUUAAUUAUCACAGAAGAACCUGAAAUUGGCAAUACCGAAAAACCUGUAGAAAUUUUUCAUAUAAUUGAGCAUUUUUGUCUUGGUAGAAGACGCCAACAGAGGAUUGAGCAUCA	0.243 ratio

Series 2 — method: aptamer microarray, sandwich; form: DNA with 2'F-ANA; matrix: in vitro; tested at: 200 nM; together with: Cy3 exosite-II aptamer, 400 nM; reading: higher = stronger binding; strand: GGTTGGTGTGGTTGG
Target: Prothrombin, mature alpha-thrombin (F2, Homo sapiens, UniProt P00734)
Notes: whole 15-mer aptamer, many near background
Modification	mean fluorescence intensity [a.u.]
2'F-ANA at 1 2 11 12 13 14 15	63.5
2'F-ANA at 1 2 3 4 6 9 10 11 12 15	109
2'F-ANA at 2 5 13 14 15	43.9
2'F-ANA at 1 2 4 6 10 11 15	62.4
2'F-ANA at 1 3 4 7 8 9 11	214
2'F-ANA at 1 2 3 5 12 13 14	47
2'F-ANA at 1 3 5 7 10 11 13 14 15	46.1
2'F-ANA at 1 4 5 6 8 9 10 11 14 15	80.1
2'F-ANA at 2 5 10 11 13 14	44.9

Series 3 — target: CCNF, cyclin fold, Cln2 fusion (human); method: yeast growth competition, sequencing; matrix: yeast; notes: strong parent motif; baseline: not given; reading: higher = stronger binding
Starting sequence: ORC1 docking peptide (human); PRARKRLELGNLG
Substitution	normalised enrichment score
L7R	1.33
L9D	1.08
A3D	0.118
A3P	1.33
L7G	0.713
L12T	2.86
P1S	2.85

Mixed results
Substance	target	test	test system	conditions	how to read	endpoint	result
PhoQ, residues 284 288 289 292 302 303 SIHMAM	PhoP, residues 12 14 15 18 19 SGWQI (Escherichia coli, UniProt P23836)	Sort-seq, measured: YFP reporter	E. coli	PhoQ-PhoP variant library, together with: 10 µM Mg2+	baseline: high Mg2+ state, higher = stronger signaling	fold induction	6.45

A few entries again (series 2):
Modification	mean fluorescence intensity [a.u.]
2'F-ANA at 1 2 3 5 12 13 14	47
2'F-ANA at 1 3 5 7 10 11 13 14 15	46.1
2'F-ANA at 1 4 5 6 8 9 10 11 14 15	80.1
